Results from different studies.
Each line is one published result; not all experiments were run side by side. Values joined by “and” are separate records of one study, mostly repeats; a detail may differ. ± marks the error that the study gave.
Cell line: A549

| SMILES | assay | conditions | scale | endpoint | value |
| --- | --- | --- | --- | --- | --- |
| CCCc1cc2cc(-n3nc(CC)c4c3CC3(CCC3)CC4=O)cc(N3CCC(O)CC3)c2c(=O)[nH]1 | cell growth or viability, MTS |  |  | IC50 | 2.59 µM |
| O=C1C=CC(=O)c2c(O)cccc21 | MTT |  | baseline: IC50 MRC-5 over IC50 A549 | selectivity index | 0.1 |
| CC(C)(C)C(=O)OCOP(=O)(OCOC(=O)C(C)(C)C)C1CCCN(O)C1=O (stereo not shown) |  |  |  | CC50 | > 100 µM |
| CC(C)C[C@H](NC(=O)[C@H](CC(=O)O)NC(=O)CNC(=O)[C@@H](N)CCCNC(=N)N)C(=O)N[C@@H](C)C(=O)N[C@H](C(=O)N[C@@H](CC(C)C)C(=O)N[C@@H](CCCNC(=N)N)C(=O)N[C@@H](CCC(N)=O)C(=O)N[C@@H](CC(C)C)C(=O)N[C@@H](C)C(=O)N[C@@H](CCC(N)=O)C(=O)N[C@@H](CCC(=O)O)C(=O)N[C@@H](CC(=O)O)C(=O)NCC(=O)N[C@H](C(=O)N[C@H](C(=O)NCC(=O)N[C@H](C(=O)N[C@@H](CCCNC(=N)N)C(=O)NCCOCCOCCOCCOCCOCCOCCOCCOCCOCCOCCOCCOCCC(=O)N[C@@H](CS)C(N)=O)C(C)C)C(C)C)C(C)C)[C@@H](C)O | phage binding |  | baseline: targeting over control phage | selectivity ratio | 9.2 ± 1.6 |
| C[C@H]1O[C@@H](O[C@H]2CC[C@@]3(C)[C@H](CC[C@@H]4[C@@H]3CC[C@]3(C)[C@@H](C5=CC(=O)OC5)[C@@H](O)C[C@]43O)C2)C[C@H](O)[C@@H]1O[C@@H]1O[C@H](CO)[C@@H](O)[C@H](O)[C@H]1O | cell growth or viability, MTT | 5 µM, 24 h |  | inhibition | 75.9% |
| O=C1C(Cl)=C(Cl)C(=O)c2ccccc21 | MTT |  | baseline: IC50 MRC-5 over IC50 A549 | selectivity index | 3.01 |
| C#CCCCC[C@H](C)C[C@@H](C)C(=O)N(C)[C@H](C(=O)N(C)[C@@H](Cc1ccccc1)C(=O)N1CCC[C@H]1C(=O)N1CCC[C@H]1C(C)=O)C(C)C | cell growth or viability, SRB |  |  | IC50 | 0.149 µM and 0.16 µM and 0.183 µM |
| Cc1ccccc1/C=C/C(=O)N[C@@H]1C(=O)N[C@@H](Cc2ccccc2)C(=O)N[C@H](CC(C)C)C(=O)N[C@@H](C(C)C)C(=O)N[C@@H](C)C(=O)N[C@H](CCC(N)=O)C(=O)NCC(=O)N2CCC[C@H]2C(=O)N[C@@H](CCCNC(=N)N)C(=O)N[C@H](Cc2ccccc2)C(=O)O[C@H]1C |  |  |  | IC50 | > 20 µM |
| N#Cc1ccc(N2N=C3c4ccc(C(=O)O)cc4CCC3C2C2CCCC2)cc1Cl (stereo not shown) | cell growth or viability | 48 h |  | EC50 | > 50 µM |
| CC(C)C12OC1C1OC13C1(C)CCC4=C(COC4=O)C1CC1OC13C2OC(=O)CCCOC1OC(CO)C(O)C(O)C1O (stereo not shown) | cell growth or viability, XTT | 47 h |  | IC50 | 2.72 µM |
| COC(=O)[C@@H](NC(=O)[C@@H](NC(=O)[C@@H](NC(=O)[C@@H]1CCCN1C(=O)[C@H](C)NC(=O)OC(C)(C)C)C(C)C)C(C)C)C(C)C | cell growth or viability, SRB |  |  | IC50 | 1.38 µM and 1.36 µM and 1.15 µM |
| O=c1n(CCNCCOS(=O)(=O)c2ccccc2)c(=O)n(S(=O)(=O)c2ccccc2)c(=O)n1S(=O)(=O)c1ccccc1 | cell growth or viability, MTT | 100 µg/mL, 24 h |  | viability | 41.3% |
| C[C@H]1O[C@@H](O[C@H]2CC[C@@]3(C)[C@H](CC[C@@H]4[C@@H]3CC[C@]3(C)[C@@H](C5=CC(=O)OC5)[C@@H](O)C[C@]43O)C2)C[C@H](O)[C@@H]1O | cell growth or viability, MTT | 5 µM, 24 h |  | inhibition | 74.5% |

Repeated from above:
| SMILES | assay | conditions | scale | endpoint | value |
| --- | --- | --- | --- | --- | --- |
| O=C1C=CC(=O)c2c(O)cccc21 | MTT |  | baseline: IC50 MRC-5 over IC50 A549 | selectivity index | 0.1 |
| CC(C)(C)C(=O)OCOP(=O)(OCOC(=O)C(C)(C)C)C1CCCN(O)C1=O (stereo not shown) |  |  |  | CC50 | > 100 µM |
